Measured values of several laboratories.
Every numbered part comes from another study and shows a few of its results, in no order. Changes are numbered by the printed parent chain.

Study 1 — method: aptamer microarray, sandwich; form: DNA with 2'F-ANA; sample: in vitro; concentration: 200 nM; together with: Cy3 exosite-II aptamer, 400 nM; direction: higher = stronger binding; sequence: GGTTGGTGTGGTTGG
Target: Prothrombin, mature alpha-thrombin (F2, Homo sapiens, UniProt P00734)
Notes: whole 15-mer aptamer, many near background
Modification	mean fluorescence intensity
2'F-ANA at 3 4 5 7 8 11 14 15	64.6 a.u.
2'F-ANA at 1 2 4 5 11 12	81.3 a.u.
2'F-ANA at 1 5 6 8 9 11 13 15	49.6 a.u.
2'F-ANA at 1 3 6 7 8 10 12 13 14 15	66 a.u.
2'F-ANA at 2 3 7 11 12 13 14	448 a.u.
2'F-ANA at 1 2 4 5 6 7 12 13	77 a.u.
2'F-ANA at 1 3 5 6 8 9 10 11 13	49.9 a.u.
2'F-ANA at 4 6 8 12 15	456 a.u.

Study 2 — target: inorganic phosphate, free oxyanion; method: microfluidic competitive inhibition; sample: in vitro, cell-free expressed; concentration: not given; direction: lower = stronger binding
Notes: derived from inhibition constants, unchanged parent 615000 nM
Parent: PafA, mature enzyme, eGFP fusion (Elizabethkingia meningoseptica, UniProt Q9KJX5); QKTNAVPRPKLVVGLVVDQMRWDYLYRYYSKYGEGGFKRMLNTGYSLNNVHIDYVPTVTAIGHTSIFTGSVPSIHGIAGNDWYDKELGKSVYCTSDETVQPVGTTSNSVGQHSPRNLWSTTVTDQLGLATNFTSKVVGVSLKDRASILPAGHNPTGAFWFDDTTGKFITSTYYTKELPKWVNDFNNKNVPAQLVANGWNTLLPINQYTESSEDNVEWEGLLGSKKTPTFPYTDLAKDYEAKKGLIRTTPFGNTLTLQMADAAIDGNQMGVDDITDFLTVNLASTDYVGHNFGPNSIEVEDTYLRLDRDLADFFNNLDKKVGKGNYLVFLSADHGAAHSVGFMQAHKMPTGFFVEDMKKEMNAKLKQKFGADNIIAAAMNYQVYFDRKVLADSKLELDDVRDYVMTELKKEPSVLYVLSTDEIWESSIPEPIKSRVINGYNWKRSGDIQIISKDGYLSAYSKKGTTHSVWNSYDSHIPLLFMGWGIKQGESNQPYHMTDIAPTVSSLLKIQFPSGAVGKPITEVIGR
Substitution	phosphate dissociation constant
Y238V	515 µM
S90V	1140 µM
A335V	529 µM
E216G	509 µM
S457V	552 µM

Study 3 — read-out: binding; method: phage display NGS; form: peptide; notes: panning round 2; reference: input library
Target: UDP-N-acetylglucosamine--peptide N-acetylglucosaminyltransferase 110 kDa subunit (OGT, Homo sapiens, UniProt O15294)
Residues (O15294 1-1046): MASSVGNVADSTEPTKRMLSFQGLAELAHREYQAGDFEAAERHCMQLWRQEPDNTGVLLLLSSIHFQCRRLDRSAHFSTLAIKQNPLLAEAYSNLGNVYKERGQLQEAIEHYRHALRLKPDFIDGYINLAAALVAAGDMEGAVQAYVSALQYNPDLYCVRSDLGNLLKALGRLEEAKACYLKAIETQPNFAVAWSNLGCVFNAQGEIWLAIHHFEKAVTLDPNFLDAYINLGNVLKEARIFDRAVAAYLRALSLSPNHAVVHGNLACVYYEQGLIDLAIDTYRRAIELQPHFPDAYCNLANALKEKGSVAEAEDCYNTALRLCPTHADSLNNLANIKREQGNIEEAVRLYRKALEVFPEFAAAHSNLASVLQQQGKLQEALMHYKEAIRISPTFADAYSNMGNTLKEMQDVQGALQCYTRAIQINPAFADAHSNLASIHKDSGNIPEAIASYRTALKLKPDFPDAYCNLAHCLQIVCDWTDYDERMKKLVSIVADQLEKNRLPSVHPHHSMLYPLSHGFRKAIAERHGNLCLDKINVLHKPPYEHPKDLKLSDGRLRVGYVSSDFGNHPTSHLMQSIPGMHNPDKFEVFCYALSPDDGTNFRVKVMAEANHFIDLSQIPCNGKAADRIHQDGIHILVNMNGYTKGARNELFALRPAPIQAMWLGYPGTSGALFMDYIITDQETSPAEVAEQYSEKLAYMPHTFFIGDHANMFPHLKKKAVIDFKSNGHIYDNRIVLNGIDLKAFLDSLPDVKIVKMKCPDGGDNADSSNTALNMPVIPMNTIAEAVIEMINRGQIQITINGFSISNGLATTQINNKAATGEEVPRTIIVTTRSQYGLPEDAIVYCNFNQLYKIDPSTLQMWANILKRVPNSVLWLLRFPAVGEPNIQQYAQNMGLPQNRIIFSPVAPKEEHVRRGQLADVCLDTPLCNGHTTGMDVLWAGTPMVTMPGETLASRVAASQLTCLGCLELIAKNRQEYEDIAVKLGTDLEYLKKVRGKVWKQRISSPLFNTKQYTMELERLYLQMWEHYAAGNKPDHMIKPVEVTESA
Sequence	minimum log2 enrichment ratio
HWPYHHALDQPQRQD	2.22
QPYQHNFYHWHAQPS	2.41
TWLDHFPWHTYHPRD	3.64
NTPQYYRPYYQITVK	2.97
RDHSWHGHHATLLGT	2.49
QMHHHVIMGHHIGHT	2.25
STSYVPIYQIDYAHM	3.16

Single results of other studies
Sequence	target	assay	test system	setting	scale	endpoint	result
QKKAKRRLFTISDSGY	human cyclin A2	peptide binding, competitive growth sequencing	peptide, Saccharomyces cerevisiae, cyclin A2-Cln2 fusion strain	concentration not given, peptide tiling library	reference: unfused Cln2 strain, direction not given	binding score	1.14

A few entries again (study 2):
Substitution	phosphate dissociation constant
A335V	529 µM
